{"data": "Measurements collected from several papers", "4'-phosphopantetheinyl transferase PptT": "4'-phosphopantetheinyl transferase PptT (Mycobacterium tuberculosis, UniProt O33336)", "note": "Lines come from different studies, so protocols differ.", "chain of UniProt O33336 (whole entry, looked up)": "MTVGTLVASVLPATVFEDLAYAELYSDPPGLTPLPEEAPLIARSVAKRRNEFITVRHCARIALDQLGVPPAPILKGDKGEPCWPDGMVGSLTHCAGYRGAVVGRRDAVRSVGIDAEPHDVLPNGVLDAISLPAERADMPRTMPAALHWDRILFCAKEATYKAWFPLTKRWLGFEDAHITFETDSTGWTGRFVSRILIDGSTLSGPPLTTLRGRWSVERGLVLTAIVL", "chain of UniProt O00418 (whole entry, looked up)": "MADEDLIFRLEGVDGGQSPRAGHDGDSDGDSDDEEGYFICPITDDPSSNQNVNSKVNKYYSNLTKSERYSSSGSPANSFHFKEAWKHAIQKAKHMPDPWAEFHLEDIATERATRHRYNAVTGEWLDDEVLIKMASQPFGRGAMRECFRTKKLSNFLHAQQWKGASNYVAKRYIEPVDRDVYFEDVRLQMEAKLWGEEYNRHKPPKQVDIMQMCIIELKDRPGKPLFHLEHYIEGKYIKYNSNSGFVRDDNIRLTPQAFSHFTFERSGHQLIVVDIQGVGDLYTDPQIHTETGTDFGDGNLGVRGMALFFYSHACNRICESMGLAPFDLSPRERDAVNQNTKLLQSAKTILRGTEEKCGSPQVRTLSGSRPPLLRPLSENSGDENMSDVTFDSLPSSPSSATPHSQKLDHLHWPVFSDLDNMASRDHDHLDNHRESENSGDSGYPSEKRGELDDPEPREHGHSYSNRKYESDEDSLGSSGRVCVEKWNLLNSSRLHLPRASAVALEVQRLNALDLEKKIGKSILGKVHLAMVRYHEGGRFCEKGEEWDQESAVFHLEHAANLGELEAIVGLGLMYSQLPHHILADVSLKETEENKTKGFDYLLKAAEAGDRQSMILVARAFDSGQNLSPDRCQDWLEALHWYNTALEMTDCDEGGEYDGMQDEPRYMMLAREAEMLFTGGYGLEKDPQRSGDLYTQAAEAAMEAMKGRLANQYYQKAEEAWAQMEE", "chain of UniProt P35626 (whole entry, looked up)": "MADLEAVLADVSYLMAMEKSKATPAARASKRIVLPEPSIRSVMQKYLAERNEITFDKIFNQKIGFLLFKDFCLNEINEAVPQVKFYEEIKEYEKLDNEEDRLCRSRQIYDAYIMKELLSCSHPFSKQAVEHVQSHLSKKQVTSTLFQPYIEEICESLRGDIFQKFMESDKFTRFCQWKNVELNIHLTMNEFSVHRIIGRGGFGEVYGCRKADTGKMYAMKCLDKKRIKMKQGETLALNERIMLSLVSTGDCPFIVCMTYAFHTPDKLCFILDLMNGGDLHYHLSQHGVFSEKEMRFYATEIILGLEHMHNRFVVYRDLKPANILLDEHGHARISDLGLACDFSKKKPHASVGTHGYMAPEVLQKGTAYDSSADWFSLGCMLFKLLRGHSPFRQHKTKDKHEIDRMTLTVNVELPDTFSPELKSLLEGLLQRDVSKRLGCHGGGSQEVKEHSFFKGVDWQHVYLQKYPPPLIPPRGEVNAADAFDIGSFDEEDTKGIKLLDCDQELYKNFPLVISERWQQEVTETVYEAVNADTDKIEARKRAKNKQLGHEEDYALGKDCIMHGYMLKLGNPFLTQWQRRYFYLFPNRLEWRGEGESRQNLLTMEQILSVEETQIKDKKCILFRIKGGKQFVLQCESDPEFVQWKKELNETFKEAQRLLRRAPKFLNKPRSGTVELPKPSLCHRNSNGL", "chain of UniProt Q07869 (whole entry, looked up)": "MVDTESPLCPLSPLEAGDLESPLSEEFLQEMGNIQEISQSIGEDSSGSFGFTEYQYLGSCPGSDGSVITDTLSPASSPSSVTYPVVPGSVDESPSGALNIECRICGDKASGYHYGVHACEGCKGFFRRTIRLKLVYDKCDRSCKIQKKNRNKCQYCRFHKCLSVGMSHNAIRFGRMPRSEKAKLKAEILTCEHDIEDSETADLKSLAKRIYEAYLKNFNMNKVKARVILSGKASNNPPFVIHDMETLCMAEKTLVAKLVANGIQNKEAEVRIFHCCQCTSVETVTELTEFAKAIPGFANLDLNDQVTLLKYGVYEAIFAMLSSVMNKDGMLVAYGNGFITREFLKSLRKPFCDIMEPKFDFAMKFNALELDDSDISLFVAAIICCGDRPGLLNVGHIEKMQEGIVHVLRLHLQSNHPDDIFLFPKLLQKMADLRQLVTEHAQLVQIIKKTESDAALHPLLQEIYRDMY", "chain of UniProt P11229 (whole entry, looked up)": "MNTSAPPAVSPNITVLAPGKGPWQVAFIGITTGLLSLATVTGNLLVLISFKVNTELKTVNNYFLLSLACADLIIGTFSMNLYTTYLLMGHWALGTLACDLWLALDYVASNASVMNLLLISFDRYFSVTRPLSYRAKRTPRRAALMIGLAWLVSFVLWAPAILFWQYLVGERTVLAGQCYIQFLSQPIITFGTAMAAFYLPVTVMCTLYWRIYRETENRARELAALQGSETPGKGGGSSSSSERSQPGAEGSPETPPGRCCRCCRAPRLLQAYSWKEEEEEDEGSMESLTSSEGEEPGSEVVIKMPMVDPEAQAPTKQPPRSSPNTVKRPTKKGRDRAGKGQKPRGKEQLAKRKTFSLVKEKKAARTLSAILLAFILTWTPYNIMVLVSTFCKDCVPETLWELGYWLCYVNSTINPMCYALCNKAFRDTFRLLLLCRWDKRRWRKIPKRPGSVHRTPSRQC", "chain of UniProt P42336 (whole entry, looked up)": "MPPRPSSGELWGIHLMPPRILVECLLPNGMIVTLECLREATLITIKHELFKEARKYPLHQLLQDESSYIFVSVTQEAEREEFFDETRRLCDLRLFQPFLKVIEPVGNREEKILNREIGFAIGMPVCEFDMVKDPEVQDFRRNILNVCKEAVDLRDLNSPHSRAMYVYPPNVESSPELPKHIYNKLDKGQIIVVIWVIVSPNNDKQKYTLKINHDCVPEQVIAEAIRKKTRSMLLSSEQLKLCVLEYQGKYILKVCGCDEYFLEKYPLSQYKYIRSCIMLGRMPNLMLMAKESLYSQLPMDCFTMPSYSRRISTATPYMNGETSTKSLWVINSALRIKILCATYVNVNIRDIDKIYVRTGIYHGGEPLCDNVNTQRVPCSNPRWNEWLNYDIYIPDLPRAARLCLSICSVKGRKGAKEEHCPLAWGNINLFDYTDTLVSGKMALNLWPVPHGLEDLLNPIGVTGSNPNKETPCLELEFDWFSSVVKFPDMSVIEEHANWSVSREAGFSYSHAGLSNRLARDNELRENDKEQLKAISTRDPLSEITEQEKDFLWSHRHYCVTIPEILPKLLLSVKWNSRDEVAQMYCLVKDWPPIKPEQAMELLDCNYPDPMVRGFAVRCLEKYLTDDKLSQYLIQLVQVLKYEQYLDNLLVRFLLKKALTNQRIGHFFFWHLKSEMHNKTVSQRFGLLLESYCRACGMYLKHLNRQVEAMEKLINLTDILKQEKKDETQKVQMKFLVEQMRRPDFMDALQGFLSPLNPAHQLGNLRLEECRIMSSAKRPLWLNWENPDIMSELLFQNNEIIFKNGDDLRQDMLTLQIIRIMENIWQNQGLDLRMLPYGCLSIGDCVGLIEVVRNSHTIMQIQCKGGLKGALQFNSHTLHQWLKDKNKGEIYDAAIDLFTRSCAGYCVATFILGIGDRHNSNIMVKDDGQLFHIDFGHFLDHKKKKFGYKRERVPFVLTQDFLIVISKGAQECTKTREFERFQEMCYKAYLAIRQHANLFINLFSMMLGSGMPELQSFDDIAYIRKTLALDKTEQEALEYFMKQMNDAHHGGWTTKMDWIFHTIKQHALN", "chain of UniProt P41595 (whole entry, looked up)": "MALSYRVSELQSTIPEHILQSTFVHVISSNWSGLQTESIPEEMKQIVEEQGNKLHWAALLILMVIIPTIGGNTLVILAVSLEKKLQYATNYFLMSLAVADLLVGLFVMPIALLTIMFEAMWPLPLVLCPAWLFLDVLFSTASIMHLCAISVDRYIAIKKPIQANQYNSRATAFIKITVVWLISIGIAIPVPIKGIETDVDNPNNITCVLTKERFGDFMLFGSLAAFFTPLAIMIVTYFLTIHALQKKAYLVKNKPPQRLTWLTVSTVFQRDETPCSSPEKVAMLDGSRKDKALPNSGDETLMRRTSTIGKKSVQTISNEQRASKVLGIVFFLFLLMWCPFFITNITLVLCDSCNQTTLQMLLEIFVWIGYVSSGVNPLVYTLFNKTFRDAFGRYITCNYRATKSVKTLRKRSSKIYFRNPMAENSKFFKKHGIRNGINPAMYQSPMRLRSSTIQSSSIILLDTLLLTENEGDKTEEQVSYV", "chain of UniProt P35368 (whole entry, looked up)": "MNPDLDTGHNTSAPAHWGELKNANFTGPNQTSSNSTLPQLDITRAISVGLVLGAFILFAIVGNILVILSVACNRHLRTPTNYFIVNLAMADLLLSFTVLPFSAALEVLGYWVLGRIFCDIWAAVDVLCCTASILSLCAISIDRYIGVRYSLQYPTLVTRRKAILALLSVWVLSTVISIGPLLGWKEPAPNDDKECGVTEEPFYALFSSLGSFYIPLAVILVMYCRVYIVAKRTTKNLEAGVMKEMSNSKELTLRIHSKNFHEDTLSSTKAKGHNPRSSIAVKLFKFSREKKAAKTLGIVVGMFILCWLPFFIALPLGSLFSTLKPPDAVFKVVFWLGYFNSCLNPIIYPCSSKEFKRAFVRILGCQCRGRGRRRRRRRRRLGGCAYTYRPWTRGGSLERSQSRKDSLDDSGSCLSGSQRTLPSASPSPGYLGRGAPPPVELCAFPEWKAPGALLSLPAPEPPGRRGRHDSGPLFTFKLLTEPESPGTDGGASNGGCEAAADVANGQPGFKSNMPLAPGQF"}
{"Structure (SMILES)": "[2H]c1c([2H])c([C@]2([2H])CCCN2C(=O)C(C)(C)Oc2ccc3cn[nH]c3c2)c([2H])c([2H])c1C([2H])([2H])[2H]", "target": "G protein-coupled receptor kinase 3 (GRK3, Homo sapiens, UniProt P35626)", "effect on": "binding", "technique": "competition with immobilised ligand", "tested at": "1 µM", "measurement": "remaining binding", "result": "58%"}
{"Structure (SMILES)": "NC(=O)c1cncc(Cn2c(=S)[nH]c3cc(CO)c(Cl)cc3c2=O)c1", "target": "4'-phosphopantetheinyl transferase PptT", "effect on": "enzyme activity", "action": "inhibitor", "technique": "FP", "measurement": "IC50", "result": "238 nM"}
{"Structure (SMILES)": "Cc1nn(C)cc1-c1nc2c(N3CCN(Cc4ccc(Cl)cc4)CC3)c(Cl)cnc2[nH]1", "target": "Receptor-type tyrosine-protein kinase FLT3 (FLT3, Homo sapiens, UniProt P36888, D835Y)", "effect on": "binding", "technique": "competition with immobilised ligand", "tested at": "1 µM", "measurement": "remaining binding", "result": "5.6%"}
{"Structure (SMILES)": "Nc1ncc(-c2nc(N3CCOCC3)nc(N3CCOCC3)n2)c(C(F)F)n1", "target": "Mitogen-activated protein kinase kinase kinase 19 (MAP3K19, Homo sapiens, UniProt Q56UN5)", "effect on": "binding", "technique": "competition with immobilised ligand", "tested at": "10 µM", "measurement": "remaining binding", "result": "41%"}
{"Structure (SMILES)": "CCCCC(CC)COC(=O)c1ccccc1C(=O)O (centres unmarked)", "target": "Peroxisome proliferator-activated receptor alpha (PPARA, Homo sapiens, UniProt Q07869)", "effect on": "reporter gene", "action": "agonist", "technique": "luciferase", "measurement": "Emax", "result": "60%"}
{"Structure (SMILES)": "C#Cc1n[nH]c2c(-c3cn(C(C)c4ccccn4)c(=O)[nH]c3=O)cc(F)cc12 (centres unmarked)", "target": "Eukaryotic elongation factor 2 kinase (EEF2K, Homo sapiens, UniProt O00418)", "effect on": "enzyme activity", "action": "inhibitor", "tested at": "1 µM", "measurement": "inhibition", "result": "4.5%"}
{"Structure (SMILES)": "COc1ncccc1-c1cnn2ccc(N3CCN(C(=O)OC(C)C)CC3)nc12", "target": "Phosphatidylinositol 4,5-bisphosphate 3-kinase catalytic subunit alpha isoform (PIK3CA, Homo sapiens, UniProt P42336)", "effect on": "binding", "technique": "competition with immobilised ligand", "tested at": "1 µM", "measurement": "remaining binding", "result": "81%"}
{"Structure (SMILES)": "COc1cc(CCNC(C)c2ccccc2O)c(OC)cc1C#N (centres unmarked)", "target": "5-hydroxytryptamine receptor 2B (HTR2B, Homo sapiens, UniProt P41595)", "effect on": "G protein activation", "action": "agonist", "technique": "BRET", "measurement": "Emax", "result": "45%"}
{"Structure (SMILES)": "Cc1cc2c(=O)n(Cc3cccnc3)c(=S)[nH]c2cn1", "target": "4'-phosphopantetheinyl transferase PptT", "effect on": "enzyme activity", "action": "inhibitor", "technique": "FP", "measurement": "IC50", "result": "740 nM"}
{"Structure (SMILES)": "CN1CC[C@@]2(C)c3cc(OC(=O)Nc4ccccc4)ccc3N(C)[C@@H]12", "target": "Muscarinic acetylcholine receptor M1 (CHRM1, Homo sapiens, UniProt P11229)", "effect on": "ligand displacement", "technique": "radioligand", "tested at": "10 µM", "measurement": "inhibition", "result": "0%"}
{"Structure (SMILES)": "CC(C)CC(=O)OC[C@H]1O[C@@](C#N)(c2ccc3c(N)ncnn23)[C@H](O)[C@@H]1O", "target": "Alpha-1B adrenergic receptor (ADRA1B, Homo sapiens, UniProt P35368)", "effect on": "cell-free assay", "tested at": "20 µM", "measurement": "inhibition", "result": "7%"}
{"note": "Some of these lines once more:"}
{"Structure (SMILES)": "C#Cc1n[nH]c2c(-c3cn(C(C)c4ccccn4)c(=O)[nH]c3=O)cc(F)cc12 (centres unmarked)", "target": "Eukaryotic elongation factor 2 kinase (EEF2K, Homo sapiens, UniProt O00418)", "effect on": "enzyme activity", "action": "inhibitor", "tested at": "1 µM", "measurement": "inhibition", "result": "4.5%"}
